Results from different studies.
Lines come from different studies, so protocols differ. “And” joins repeats or separate records; there may be more than shown. Numbers after ± are the reported error.
CDK2: Cyclin-dependent kinase 2 (CDK2, Homo sapiens, UniProt P24941)
UniProt P35462, sequence (whole entry, looked up): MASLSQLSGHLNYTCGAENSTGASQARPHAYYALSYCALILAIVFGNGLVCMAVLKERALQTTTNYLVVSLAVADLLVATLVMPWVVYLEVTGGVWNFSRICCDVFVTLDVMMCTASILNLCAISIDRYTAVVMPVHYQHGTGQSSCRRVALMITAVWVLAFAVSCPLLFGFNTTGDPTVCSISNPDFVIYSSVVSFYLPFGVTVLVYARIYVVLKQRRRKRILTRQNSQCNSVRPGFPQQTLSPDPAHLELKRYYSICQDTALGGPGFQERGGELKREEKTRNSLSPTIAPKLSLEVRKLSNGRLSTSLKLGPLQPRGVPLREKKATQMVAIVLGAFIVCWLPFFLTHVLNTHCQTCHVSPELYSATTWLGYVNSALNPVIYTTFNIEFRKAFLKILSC

| SMILES | tested on | assay | setting | scale | quantity | result |
| --- | --- | --- | --- | --- | --- | --- |
| Cc1ccc2c(c1)C(=O)[C@]1(O)CCN(c3ccc4nc(C)ccc4c3)C1=N2.Cl | murine Trp53-/- cells | refers to: RAS, ERK1/2 and SRC | 5 µM, 48 h | baseline: untreated | activation | 2 to 3 fold |
| CC1CC(OC(=O)C(O)c2ccccc2)CC(C)(C)C1 (centres unmarked) | MDA-MB-231 BAX/BAK siRNA knockdown | CellTiter-Glo | concentration not given | baseline: normalised luminescence | viability | 18.8% and 25.3% |
| Cc1nn(CC(F)(F)F)cc1Nc1ncc(Br)c(NCc2ccc(S(N)(=O)=O)cc2)n1 | THP1-Dual | western blot | 20 µM, together with: poly(I:C) | baseline: DMSO | phospho-TBK1 to TBK1 ratio | 0.33 and 0.352 and 0.617 |
| O=C(C[C@@H](C(F)F)n1ccc(F)n1)N1CCC(O)(Cn2cnc3c(cnn3-c3ccc(F)cc3)c2=O)CC1 | CHP-212 resistant subline R3 | annexin V/PI flow cytometry | 0.3 µM, 48 h | – | viable cells | 83.9% and 89.2% and 90% |
| CCn1cc(-c2cc(Cn3ccoc3=N)cc3c2CCN([C@@H](C)c2cc(OC)ccn2)C3=O)c(C(F)(F)F)n1 | HPAF-II | cell growth | 120 h | – | EC50 | 0.159 µM |
| c1ccc2[nH]ccc2c1 | HCT-8 | RNA-seq, refers to: SLC16A11 | concentration not given | – | mRNA level, LS mean | 2.62 counts per million |
| CC(C)C[C@@H](C=O)NC(=O)[C@H](CC(C)C)NC(=O)[C@H](CC(C)C)NC(=O)OCc1ccccc1 | BRD4-HiBiT cells | BRD4 degradation rescue, inhibitor | 8 h, 50% degradation rescued, together with: dBET6 500 nM | – | EC50 | 0.336 µM |
| Cc1nn(-c2nc3c(F)cc(F)cc3s2)c(O)c1C(c1cccc(C(F)(F)F)c1)c1c(C)nn(-c2nc3c(F)cc(F)cc3s2)c1O | THP1-Dual | IFN luciferase reporter | 20 µM, together with: HT-DNA | – | inhibition | 75% and 76.9% and 72.5% and 72.7% and 77% |
| Cc1cc(Nc2ncc(Cl)c(Nc3ccccc3S(=O)(=O)C(C)C)n2)c(OC(C)C)cc1C1CCNCC1 | CLB-BAR | phosphoproteomics LC-MS/MS, refers to: LPIN1 phosphorylation | 200 nM, 60 min | baseline: untreated | log2 fold change | -1.55 |
| Cc1[nH]c(C)c(S(=O)(=O)Nc2ccc(C(F)(F)F)c(Cl)c2)c1C(=O)N1CC(F)(F)C1 | D(3) dopamine receptor (DRD3, Homo sapiens, UniProt P35462) | Go activation, antagonist, BRET | together with: dopamine | – | IC50 | > 100 µM |
| CC#CC(=O)N1CCC[C@H]1c1nc(-c2ccc(C(=O)Nc3ccccn3)cc2)c2c(N)nccn12 | TMD8 | calcium flux, FLIPR | 2 h preincubation, together with: anti-IgM | – | maximum inhibition | 52.9% |
| O=C(/C=C/C=C/C=C/C1CCCCC1)NC1=C[C@@](O)(/C=C/C=C/C=C/C(=O)NC2=C(O)CCC2=O)[C@@H]2O[C@@H]2C1=O | SK-N-SH | CellTiter-Glo | 78 h | – | GI50 | 4.7 µM |
| CCCOC(=O)C1=C(C)NC2=C(C(=O)OC(c3ccc(OC)c(OC)c3)C2)C1c1ccccc1Cl (centres unmarked) | J774.A1 | cytotoxicity | – | – | EC50 | > 20 µM |
| Cc1cnc(NC2CCOCC2)nc1-n1cnc(C(=O)NC(CN)c2cc(F)cc(Cl)c2)c1 (centres unmarked) | MINO | flow cytometry | 1 µM, 72 h | – | G2 phase cells | 4% |
| C=CC(=O)N1[C@@H](c2ccc3c(c2)OCO3)c2[nH]c3ccccc3c2C[C@H]1C(=O)NC | rat DRG neurons | – | 0.1235 µM, 48 h, together with: vincristine 40 nM | – | mean neuron degeneration | 74.5% |
| CCCCN1C[C@H](O)[C@@H](O)[C@@H](O)[C@H]1CO | sample G patient fibroblasts | Gb3 level lowering, LC-MS/MS, refers to: Gb3 d18:1/20:0 | 216 h | – | IC50 | 13.1 µM |
| O=P(O)(O)C(O)(Cn1ccnc1)P(=O)(O)O | hFOB 1.19 | AlamarBlue | 15 µM, 24 h | baseline: control | viability | 99 ± 1% |
| CC[C@H](C)[C@H](NC(=O)[C@H](C)NC(=O)CNC(=O)[C@H](Cc1ccccc1)NC(=O)[C@H](CC(N)=O)NC(=O)[C@H](CC(N)=O)NC(=O)[C@H](CO)NC(=O)[C@H](CO)NC(=O)[C@H](Cc1c[nH]cn1)NC(=O)[C@@H](NC(=O)[C@H](CC(C)C)NC(=O)[C@H](Cc1ccccc1)NC(=O)[C@H](CC(N)=O)NC(=O)[C@H](C)NC(=O)[C@H](CC(C)C)NC(=O)[C@H](CCCNC(=N)N)NC(=O)[C@H](CCC(N)=O)NC(=O)[C@@H](NC(=O)[C@H](C)NC(=O)[C@@H]1CSSC[C@H](NC(=O)[C@@H](N)CCCCN)C(=O)N[C@@H](CC(N)=O)C(=O)N[C@@H]([C@@H](C)O)C(=O)N[C@@H](C)C(=O)N[C@@H]([C@@H](C)O)C(=O)N1)[C@@H](C)O)C(C)C)C(=O)N[C@@H](CC(C)C)C(=O)N[C@@H](CO)C(=O)N[C@@H](CO)C(=O)N[C@H](C(=O)N[C@@H](CC(N)=O)C(=O)N[C@H](C(=O)NCC(=O)N[C@@H](CO)C(=O)N[C@@H](CC(N)=O)C(=O)N[C@H](C(=O)N[C@@H](Cc1ccc(O)cc1)C(N)=O)[C@@H](C)O)C(C)C)[C@@H](C)O | INS-1 | DCFH-DA | 1 µM, 2 h | baseline: control | intracellular ROS level | ~6 fold |
| Cc1nc(C)c(-c2ccnc(Nc3ccc(Cl)cc3)n2)s1 | CDK2 | average of ITC, Octet and Thermofluor | untagged protein | – | Kd | 6.43 µM |
| C#CCOc1cc(C(=O)Nc2cc(OCCN)c3ccccc3n2)nc(C(=O)Nc2cc(OCCN)c3ccccc3n2)c1 | HT-1080 | cell viability, CellTiter-Glo | 72 h | baseline: IC50 HT-1080 over WI-38 | selectivity ratio | 0.9 |
| CCOC(=O)C1=C(C)NC2=C(C(=O)CC(c3ccc(OC)c(OC)c3)C2)C1c1ccccc1Cl (mixture of isomers) | J774.A1 | cytotoxicity | – | – | EC50 | > 20 µM |

| SMILES | tested on | assay | setting | scale | quantity | result |
| --- | --- | --- | --- | --- | --- | --- |
| CCn1cc(-c2cc(Cn3ccnc3)cc3c2CCN([C@H](c2cc(OC)ccn2)C2CC2)C3=O)c(C(F)(F)F)n1 | HCC1833 | cell growth | 120 h | – | EC50 | > 30 µM |
| C[C@]12CC[C@@H]3c4ccc(O)cc4CC[C@H]3[C@@H]1CC[C@@H]2OC(=O)CCC1CCCC1 | MDA-MB-231 BAX/BAK siRNA knockdown | CellTiter-Glo | concentration not given | baseline: normalised luminescence | viability | 57.2% and 33.7% |
| Nc1ccn([C@@H]2O[C@H](CO)[C@@H](O)[C@@H]2O)c(=O)n1 | THP-1 SAMHD1 knockout | cell viability, MTS | 3 days | baseline: THP-1 shScr over SAMHD1 knockout | IC50 fold change | 93 fold |
| COc1cc(/C=C/C(=O)N2CCC=CC2=O)cc(OC)c1OC | MDA-MB-468 | qRT-PCR, refers to: Nestin | 30 µM, 6 h | baseline: time zero | mRNA expression | 105 ± 13.2% |
| NS(=O)(=O)OC[C@H]1C[C@@H](Nc2ccnc3cc(-c4cccc(SC(F)(F)F)c4)nn23)[C@H](O)[C@@H]1O | BRD4-HiBiT cells | BRD4 degradation rescue, inhibitor | 2 h, 50% degradation rescued, together with: dBET6 500 nM | – | EC50 | 0.491 µM |
| NCCOc1cc(NC(=O)c2cccc(C(=O)Nc3cc(OCCN)c4ccccc4n3)n2)nc2ccccc12 | HT-1080 | cell viability, CellTiter-Glo | 72 h | baseline: IC50 HT-1080 over WI-38 | selectivity ratio | 3.4 |
| Cc1nc(NC(=O)N2CCC[C@H]2C(N)=O)sc1-c1ccnc(C(C)(C)C(F)(F)F)c1 | KYSE-510 | cell growth, CellTiter-Glo | 120 h | – | Hill coefficient GR curve | 1.15 |
| CC(C)C[C@H](NC(=O)[C@H](Cc1ccccc1)NC(=O)c1cnccn1)B(O)O | BRD4-HiBiT cells | BRD4 degradation rescue, inhibitor | 24 h, together with: dBET6 500 nM | – | EC50 | 0.0177 µM |
| CCOC(=O)C1=C(C)NC2=C(C(=O)CC(c3cc(OC)c(OC)c(OC)c3)C2)C1c1ccccc1Cl (mixture of isomers) | J774.A1 | cytotoxicity | – | – | EC50 | > 20 µM |
| NC(=O)c1ccc(NCCCN2CCOCC2)c([N+](=O)[O-])c1 | CDK2 | binding | – | – | Kd | > 100 µM |
| COc1cccc2c1C(=O)c1c(O)c3c(c(O)c1C2=O)C[C@@](O)(C(=O)CO)C[C@@H]3O[C@H]1C[C@H](N)[C@H](O)[C@H](C)O1 | HepG2 | refers to: glutathione | 6 h, distribution mode 1 | – | point of departure | 0.00437 µM |
| C[C@H](CCC(=O)NCCS(=O)(=O)O)[C@H]1CC[C@H]2[C@@H]3CC[C@@H]4C[C@H](O)CC[C@]4(C)[C@H]3CC[C@]12C | human ADPKD PLD cystic cholangiocytes | cell confluence | 20 µM, 24 h | baseline: untreated | proliferation increase | 54% |
| NS(=O)(=O)OC[C@@H]1C[C@@H](n2ccc3c(N[C@H]4CCc5ccccc54)ncnc32)C[C@@H]1O | BRD4-HiBiT cells | BRD4 degradation rescue, inhibitor | 24 h, 50% degradation rescued, together with: dBET6 500 nM | – | EC50 | 0.0568 µM |
| C=Cc1c2[n-]c(c1C)/C=c1\[n-]/c(c(C)c1C=C)=C\c1[n-]c(c(CCC(=O)O)c1C)/C=c1\[n-]c(c(C)c1CCC(=O)O)=C2.[Sn+4] | SH-SY5Y | RNA-seq, refers to: FAM30A mRNA | 5 µM, 5 h | baseline: untreated cells | fold change | 3.2 |
| Cn1cc(-c2ccc(-c3cncc(Cl)c3N3CCC4(CCNC4=O)CC3)cc2)cn1 | COLO 205 | gene expression, microarray, refers to: EXD3 mRNA | concentration not given, 6 h | baseline: untreated cells | log2 fold change | 2.64 |
| Clc1nc(NCc2ccco2)c2[nH]cnc2n1 | iPSC-derived cardiomyocytes | RNA-seq, refers to: ADGRB2 chr1 exon ending 31728081 | unit not given | baseline: DMSO minus compound | ΔPSI | -0.28 |
| CC/C(=N\NC(=O)NCc1cccc(O)c1)c1ccc(O)c(C)c1O | SK-OV-3 | Western blot, refers to: TAZ | 10 µM, 1 h, 3D gellan gum culture, unit not given | baseline: β-actin | protein level | 0.91 ± 0.25 |
| Cc1cccc(-c2[nH]c(CNc3ccccc3F)nc2-c2ccc3ncnn3c2)n1 | MM1.S pomalidomide-resistant | XTT | 3.5 µM | baseline: untreated | viability | 17% |
| CCCCC[C@H](O)/C=C/[C@H]1C(=O)C[C@H](O)[C@@H]1C/C=C\CCCC(=O)O | HEK293-A2AR cells, SLCO2A1 knockout | HTRF cAMP | 500 nM | – | HTRF cAMP signal | 321 a.u. and 312 a.u. and 326 a.u. |
| C[C@@H](O)[C@H](NC(=O)Nc1ncnc2c1ncn2[C@@H]1O[C@H](CO)[C@@H](O)[C@H]1O)C(=O)O | mock-transfected cells | TGFα shedding, agonist | 100 nM | baseline: unstimulated vehicle control | AP-TGFα release | 0% |

Excerpt of the above:
| SMILES | tested on | assay | setting | scale | quantity | result |
| --- | --- | --- | --- | --- | --- | --- |
| NS(=O)(=O)OC[C@@H]1C[C@@H](n2ccc3c(N[C@H]4CCc5ccccc54)ncnc32)C[C@@H]1O | BRD4-HiBiT cells | BRD4 degradation rescue, inhibitor | 24 h, 50% degradation rescued, together with: dBET6 500 nM | – | EC50 | 0.0568 µM |
| C=Cc1c2[n-]c(c1C)/C=c1\[n-]/c(c(C)c1C=C)=C\c1[n-]c(c(CCC(=O)O)c1C)/C=c1\[n-]c(c(C)c1CCC(=O)O)=C2.[Sn+4] | SH-SY5Y | RNA-seq, refers to: FAM30A mRNA | 5 µM, 5 h | baseline: untreated cells | fold change | 3.2 |
| Cn1cc(-c2ccc(-c3cncc(Cl)c3N3CCC4(CCNC4=O)CC3)cc2)cn1 | COLO 205 | gene expression, microarray, refers to: EXD3 mRNA | concentration not given, 6 h | baseline: untreated cells | log2 fold change | 2.64 |
| Clc1nc(NCc2ccco2)c2[nH]cnc2n1 | iPSC-derived cardiomyocytes | RNA-seq, refers to: ADGRB2 chr1 exon ending 31728081 | unit not given | baseline: DMSO minus compound | ΔPSI | -0.28 |
| CC/C(=N\NC(=O)NCc1cccc(O)c1)c1ccc(O)c(C)c1O | SK-OV-3 | Western blot, refers to: TAZ | 10 µM, 1 h, 3D gellan gum culture, unit not given | baseline: β-actin | protein level | 0.91 ± 0.25 |
